Published values gathered from unrelated publications.
Compare with care: the assays were run in different laboratories. Several values in a cell are separate wells, animals, samples, runs or records.
FGFR2: Fibroblast growth factor receptor 2 (FGFR2, Homo sapiens, UniProt P21802)
Chain of UniProt P21802 (whole entry, unmodified, looked up): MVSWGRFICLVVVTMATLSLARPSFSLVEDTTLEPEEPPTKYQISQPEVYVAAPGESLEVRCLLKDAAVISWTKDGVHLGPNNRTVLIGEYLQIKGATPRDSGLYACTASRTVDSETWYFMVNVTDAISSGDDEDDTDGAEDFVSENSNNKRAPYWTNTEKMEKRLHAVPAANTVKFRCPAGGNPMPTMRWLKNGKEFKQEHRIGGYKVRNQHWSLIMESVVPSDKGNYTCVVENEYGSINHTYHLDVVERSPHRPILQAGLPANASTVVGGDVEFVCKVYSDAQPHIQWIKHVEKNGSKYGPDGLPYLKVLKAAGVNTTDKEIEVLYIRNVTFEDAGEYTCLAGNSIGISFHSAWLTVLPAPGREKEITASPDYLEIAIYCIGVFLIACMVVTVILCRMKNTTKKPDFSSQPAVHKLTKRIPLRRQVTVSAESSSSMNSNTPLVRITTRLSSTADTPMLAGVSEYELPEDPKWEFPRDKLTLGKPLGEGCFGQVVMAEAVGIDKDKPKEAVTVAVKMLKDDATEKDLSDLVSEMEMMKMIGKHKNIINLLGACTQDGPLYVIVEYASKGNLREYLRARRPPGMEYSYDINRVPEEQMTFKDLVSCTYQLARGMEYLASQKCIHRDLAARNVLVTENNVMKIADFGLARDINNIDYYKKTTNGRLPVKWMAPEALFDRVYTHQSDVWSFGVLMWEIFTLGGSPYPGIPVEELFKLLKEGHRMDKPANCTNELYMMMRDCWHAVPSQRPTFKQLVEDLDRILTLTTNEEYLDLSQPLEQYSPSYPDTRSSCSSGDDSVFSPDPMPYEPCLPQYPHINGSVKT

C=CC(=O)N1CCCC(n2c(=O)c3ncccc3n(Cc3ccc(Oc4ccccc4)cc3)c2=O)C1 (stereo not shown)  remaining binding (FGFR2; cell-free assay, competition with immobilised ligand; 1 µM): 100%
C=CC(=O)Nc1cccc(-c2cnc3[nH]cc(C(=O)NC(C)(C)C)c3n2)c1  inhibition (FGFR2; kinase activity; 0.1 µM): 41% and 39%
C=CC(=O)N1CCc2ccc(-n3c(=O)ccc4cnc5ccc(-c6cnn(C)c6)cc5c43)cc21  remaining binding (FGFR2; KINOMEscan; 1 µM; reference: DMSO control): 92%
CN1CCN(Cc2ccc(NC(=O)c3cccc(C#Cc4cnc(N)c5ncccc45)c3)cc2C(F)(F)F)CC1  remaining binding (FGFR2; cell-free assay, competition with immobilised ligand; 0.5 µM): 1.4%
CCN1CCN(Cc2ccc(C(=O)Nc3ccc(C)c(NCc4cnc5[nH]ccc5c4OC)c3)cc2C(F)(F)F)CC1  remaining binding (FGFR2; binding, competition with immobilised ligand; 1 µM): 12%
COc1ccc(C(=O)/C=C/c2ccccc2-c2c[nH]c3ccc(C#N)cc23)c(O)c1  inhibition (FGFR2; enzyme activity, inhibitor; 20 µM): -1%
COc1ccc(NC(=O)Nc2ccc3c(c2)C(=O)N(C(C)CO)CC(C)C(CN(C)Cc2ccc4c(c2)OCO4)O3)cc1 (stereo not shown)  remaining binding (FGFR2; binding, competition with immobilised ligand; 10 µM): 77%
COCC12C(=O)NC3C4(C(OC)CC1O)C1CC5(O)C(OC)C(O)C(OC(C)=O)(C1C5OC(=O)c1ccccc1)C3(O)C(OC)C24 (stereo not shown)  remaining activity (FGFR2; kinase activity, inhibitor, ProQinase kinase profiling; 25 µM; reference: control): 119% and 116%
CNC1C[S+]2CC[S+]3CC[S+](C1)[Ru-4]321([N]=C=S)[n]2c3ccc(OC)cc3c3c4c(c5cc(F)c[n+]1c5c32)C(=O)NC4=O (stereo not shown)  remaining binding (FGFR2; KinomeScan; 0.1 µM; reference: untreated): 82%
Cc1nc2c(F)cc(-c3nc(Nc4ccc(CNC(=O)CCCCCCC(=O)NO)cc4)ncc3F)cc2n1C(C)C  inhibition (Fibroblast growth factor receptor 2 (FGFR2, Homo sapiens, UniProt P21802, N549H); enzyme activity, inhibitor; 1 µM): 73%
Cc1cccc(O[C@H]2CCC[C@@H](C(C)CNCc3ccncc3)C2)c1 (relative stereo)  inhibition (FGFR2; cell-free assay; 1 µM): 3%
Cc1[nH]nc2c1N=C(c1ccccc1Cl)c1cnc(N3CCOCC3)cc1N2  inhibition (FGFR2; enzyme activity, inhibitor; 0.5 µM): > 99%
CCN1CCN(Cc2ccc(NC(=O)c3ccc(C)c(NC(=O)c4cncc(-c5cccs5)c4)c3)cc2C(F)(F)F)CC1  remaining binding (FGFR2; binding, competition with immobilised ligand; 1 µM): 27%

Some of these lines once more:
C=CC(=O)N1CCCC(n2c(=O)c3ncccc3n(Cc3ccc(Oc4ccccc4)cc3)c2=O)C1 (stereo not shown)  remaining binding (FGFR2; cell-free assay, competition with immobilised ligand; 1 µM): 100%
